Assay results from different studies.
Protocols differ between the studies behind these lines. Numbers after ± are the reported error.
Method: steady-state kinetics
B1: oxdC T165S (Bacillus subtilis, UniProt O34714); chain MKKQNDIPQPIRGDKGATVKIPRNIERDRQNPDMLVPPETDHGTVSNMKFSFSDTHNRLEKGGYAREVTVRELPISENLASVNMRLKPGAIRELHWHKEAEWAYMIYGSARVTIVDEKGRSFIDDVGEGDLWYFPSGLPHSIQALEEGAEFLLVFDDGSFSENSSFQLTDWLAHTPKEVIAANFGVTKEEISNLPGKEKYIFENQLPGSLKDDIVEGPNGEVPYPFTYRLLEQEPIESEGGKVYIADSTNFKVSKTIASALVTVEPGAMRELHWHPNTHEWQYYISGKARMTVFASDGHARTFNYQAGDVGYVPFAMGHYVENIGDEPLVFLEIFKDDHYADVSLNQWLAMLPETFVQAHLDLGKDFTDVLSKEKHPVVKKKCSK
B2: GTPBP3 E142K/R136E (Homo sapiens, UniProt Q969Y2); chain TRRSSGAPAPGSGATIFALSSGQGRCGIAVIRTSGPASGHALRILTAPRDLPLARHASLRLLSDPRSGEPLDRALVLWFPGPQSFTGEDCVEFHVHGGPAVVSGVLQALGSVPGLEPAEAGKFTRRAFANGKLNLTEVEGLADLIHAETEAQRRQALRQLDGELGHLCRGWAETLTKALAHVEAYIDFGEDDNLEEGVLEQADIEVRALQVALGAHLRDARRGQRLRSGVHVVVTGPPNAGKSSLVNLLSRKPVSIVSPEPGTTRDVLETPVDLAGFPVLLSDTAGLREGVGPVEQEGVRRARERLEQADLILAMLDASDLASPSSCNFLATVVASVGAQSPSDSSQRLLLVLNKSDLLSPEGPGPGPDLPPHLLLSCLTGEGLDGLLEALRKELAAVCGDPSTDPPLLTRARHQHHLQGCLDALGHYKQSKDLALAAEALRVARGHLTRLTGGGGTEEILDIIFQDFCVGK
B3: PRP43 R159A (Saccharomyces cerevisiae, UniProt P53131); chain MGSKRRFSSEHPDPVETSIPEQAAEIAEELSKQHPLPSEEPLVHHDAGEFKGLQRHHTSAEEAQKLEDGKINPFTGREFTPKYVDILKIRRELPVHAQRDEFLKLYQNNQIMVFVGETGSGKTTQIPQFVLFDEMPHLENTQVACTQPRRVAAMSVAQAVAEEMDVKLGEEVGYSIRFENKTSNKTILKYMTDGMLLREAMEDHDLSRYSCIILDEAHERTLATDILMGLLKQVVKRRPDLKIIIMSATLDAEKFQRYFNDAPLLAVPGRTYPVELYYTPEFQRDYLDSAIRTVLQIHATEEAGDILLFLTGEDEIEDAVRKISLEGDQLVREEGCGPLSVYPLYGSLPPHQQQRIFEPAPESHNGRPGRKVVISTNIAETSLTIDGIVYVVDPGFSKQKVYNPRIRVESLLVSPISKASAQQRAGRAGRTRPGKCFRLYTEEAFQKELIEQSYPEILRSNLSSTVLELKKLGIDDLVHFDFMDPPAPETMMRALEELNYLACLDDEGNLTPLGRLASQFPLDPMLAVMLIGSFEFQCSQEILTIVAMLSVPNVFIRPTKDKKRADDAKNIFAHPDGDHITLLNVYHAFKSDEAYEYGIHKWCRDHYLNYRSLSAADNIRSQLERLMNRYNLELNTTDYESPKYFDNIRKALASGFFMQVAKKRSGAKGYITVKDNQDVLIHPSTVLGHDAEWVIYNEFVLTSKNYIRTVTSVRPEWLIEIAPAYYDLSNFQKGDVKLSLERIKEKVDRLNELKQGKNKKKSKHSKK
B4: NotC (UniProt E0Y3X0); chain MAIEEKSTSAEPGPYDALSRFSSLTGEDDRKWWEHTGPVLEKVMRDSGYELQSQYIYLYFVQQHLIPYLGKFPTRGQDDHRWQSNLTPYKVPYELSWNVSHKVVRISWDPVCDASGTENDAFNKKAIHDCTRQLAELDSTVILDRYRLLHKDLVITDEEEQQLLRRDVLPKSGRGQHNLAVDFQEGGITLKVYFYPYMKFLATGTPIEELFFSAIEKLRIADIDEAVGMLKCFLSPKSDDGKPSVDEKVFPSLLACDLCDPSKSRIKYYVIDKWVKWERIANLWTIGGRRLEDPYCAKGLALLKELWDLLAIPEGDRGDIWPNLVLGQPPTHLMTTIANYTLSPASRFPEPQVYLTTFGLNDMAIIDALTAFYERVGFTDMAKSYKKNVQSYYPNLDLNQTNWVHEAVSFSYRNSKPYLSVYYSPF
B5: thyA H147V (Escherichia coli, UniProt P0A884); chain MKQYLELMQKVLDEGTQKNDRTGTGTLSIFGHQMRFNLQDGFPLVTTKRCHLRSIIHELLWFLQGDTNIAYLHENNVTIWDEWADENGDLGPVYGKQWRAWPTPDGRHIDQITTVLNQLKNDPDSRRIIVSAWNVGELDKMALAPCVAFFQFYVADGKLSCQLYQRSCDVFLGLPFNIASYALLVHMMAQQCDLEVGDFVWTGGDTHLYSNHMDQTHLQLSREPRPLPKLIIKRKPESIFDYRFEDFEIEGYDPHPGIKAPVAI
B6: cyc1 L72V (Streptomyces coelicolor, UniProt Q9K499); chain MHAFPHGTTATPTAIAVPPSLRLPVIEAAFPRQLHPYWPKLQETTRTWLLEKRLMPADKVEEYADGLCYTDVMAGYYLGAPDEVLQAIADYSAWFFVWDDRHDRDIVHGRAGAWRRLRGLLHTALDSPGDHLHHEDTLVAGFADSVRRLYAFLPATWNARFARHFHTVIEAYDREFHNRTRGIVPGVEEYLELRRLTFAHWIWTDLLEPSSGCELPDAVRKHPAYRRAALLSQEFAAWYNDLCSLPKEIAGDEVHNLGISLITHHSLTLEEAIGEVRRRVEECITEFLAVERDALRFADELADGTVRGKELSGAVRANVGNMRNWFSSVYWFHHESGRYMVDSWDDRSTPPYVNNEAAGEK
B7: protein (Amanita muscaria, UniProt A0A650FNW1); chain MSTKPETDLQTVLDSEIKEWHFHIYFHQNNAAEHQAALELRDAVLRLRQDGAFVAVPLFRVNMDPMGPHPVGSYEIWVPSETFASVFSYLCMNRGRLSILVHPLTREELRDHEIRNAWIGPSFPLNLANLPIKSDEIPLQYPSLKLGYSSTAHKMSLEERRKLGDDIEAVLRGEKEAARAPHRDA
B8: SACOL1063 (Staphylococcus aureus, UniProt Q5HH30); chain MFSKVNNQKMLEDCFYIRKKVFVEEQGVPEESEIDEYESESIHLIGYDNGQPVATARIRPINETTVKIERVAVMKSHRGQGMGRMLMQAVESLAKDEGFYVATMNAQCHAIPFYESLNFKMRGNIFLEEGIEHIEMTKKLTSLN
UniProt P10724, sequence (whole entry, looked up): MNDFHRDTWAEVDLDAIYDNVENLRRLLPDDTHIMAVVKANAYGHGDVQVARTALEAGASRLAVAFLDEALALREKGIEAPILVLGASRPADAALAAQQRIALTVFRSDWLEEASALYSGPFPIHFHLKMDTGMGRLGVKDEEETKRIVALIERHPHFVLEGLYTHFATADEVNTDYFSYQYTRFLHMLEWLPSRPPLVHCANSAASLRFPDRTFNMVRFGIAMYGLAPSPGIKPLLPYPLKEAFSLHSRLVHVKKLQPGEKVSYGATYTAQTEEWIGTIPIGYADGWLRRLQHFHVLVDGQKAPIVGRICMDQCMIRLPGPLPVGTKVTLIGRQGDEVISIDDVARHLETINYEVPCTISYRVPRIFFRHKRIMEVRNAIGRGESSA
UniProt O60656, sequence (whole entry, looked up): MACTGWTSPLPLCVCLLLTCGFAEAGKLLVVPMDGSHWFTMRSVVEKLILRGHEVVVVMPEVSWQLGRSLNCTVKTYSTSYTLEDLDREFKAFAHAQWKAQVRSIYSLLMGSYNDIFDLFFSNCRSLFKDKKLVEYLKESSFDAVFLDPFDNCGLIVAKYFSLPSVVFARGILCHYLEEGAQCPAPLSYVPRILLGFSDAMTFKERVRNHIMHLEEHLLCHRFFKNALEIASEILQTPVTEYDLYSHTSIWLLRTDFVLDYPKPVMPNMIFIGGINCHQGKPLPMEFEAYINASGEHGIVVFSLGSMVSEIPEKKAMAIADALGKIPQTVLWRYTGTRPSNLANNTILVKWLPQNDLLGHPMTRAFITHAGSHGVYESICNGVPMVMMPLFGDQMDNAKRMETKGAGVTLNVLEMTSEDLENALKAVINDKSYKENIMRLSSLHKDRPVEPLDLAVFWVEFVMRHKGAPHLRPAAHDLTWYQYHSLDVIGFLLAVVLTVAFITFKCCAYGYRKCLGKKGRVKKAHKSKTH
UniProt Q9UYB2, sequence (whole entry, looked up): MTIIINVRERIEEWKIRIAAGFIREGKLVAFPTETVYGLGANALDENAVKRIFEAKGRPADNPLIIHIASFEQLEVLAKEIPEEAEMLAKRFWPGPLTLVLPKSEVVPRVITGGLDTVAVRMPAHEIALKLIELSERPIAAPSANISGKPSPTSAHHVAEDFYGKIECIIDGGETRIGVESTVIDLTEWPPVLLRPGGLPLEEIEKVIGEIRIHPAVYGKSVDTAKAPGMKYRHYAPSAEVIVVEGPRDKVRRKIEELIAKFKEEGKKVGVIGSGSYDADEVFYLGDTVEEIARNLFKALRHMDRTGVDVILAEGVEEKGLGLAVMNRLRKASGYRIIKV
UniProt Q04049, sequence (whole entry, looked up): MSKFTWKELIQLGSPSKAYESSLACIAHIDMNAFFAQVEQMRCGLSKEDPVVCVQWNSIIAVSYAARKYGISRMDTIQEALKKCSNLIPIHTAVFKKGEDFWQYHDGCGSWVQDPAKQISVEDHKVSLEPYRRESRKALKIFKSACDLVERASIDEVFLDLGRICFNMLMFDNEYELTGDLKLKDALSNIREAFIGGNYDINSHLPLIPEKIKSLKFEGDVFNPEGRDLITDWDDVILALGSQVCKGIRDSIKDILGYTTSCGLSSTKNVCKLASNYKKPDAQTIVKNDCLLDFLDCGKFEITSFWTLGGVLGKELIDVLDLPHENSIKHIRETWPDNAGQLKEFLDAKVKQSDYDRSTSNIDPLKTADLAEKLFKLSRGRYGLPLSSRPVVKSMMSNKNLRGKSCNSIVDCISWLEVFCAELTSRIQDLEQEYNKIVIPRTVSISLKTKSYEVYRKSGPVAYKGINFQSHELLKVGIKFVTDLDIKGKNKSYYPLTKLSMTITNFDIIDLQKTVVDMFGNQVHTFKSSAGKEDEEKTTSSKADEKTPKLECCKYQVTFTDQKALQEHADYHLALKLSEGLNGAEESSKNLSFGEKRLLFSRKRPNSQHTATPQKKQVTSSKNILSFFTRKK
UniProt P07914, sequence (whole entry, looked up): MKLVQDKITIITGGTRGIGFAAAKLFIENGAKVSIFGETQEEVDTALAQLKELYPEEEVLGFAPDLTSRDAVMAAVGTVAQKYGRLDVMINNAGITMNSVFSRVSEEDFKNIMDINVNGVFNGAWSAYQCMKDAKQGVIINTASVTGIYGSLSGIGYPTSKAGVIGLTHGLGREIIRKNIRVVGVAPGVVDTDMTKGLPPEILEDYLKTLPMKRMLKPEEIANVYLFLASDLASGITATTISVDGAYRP

The Km of `UGT1A9 (Homo sapiens, UniProt O60656)` is reported as 312 µM (COc1cc2oc(=O)cc(-c3ccccc3)c2cc1O; pH 7.4, 37 °C).
`B1 (oxdC T165S)` has a kcat of 20 ± 1 s⁻¹ (O=C(O)C(=O)O; pH 4.2, 25 °C).
`trypsin (Saccharopolyspora erythraea, UniProt Q54137)` has a kcat of 1.04 ± 0.02 s⁻¹ (NCCCC[C@H](NC(=O)c1ccccc1)C(=O)Nc1ccc([N+](=O)[O-])cc1; pH 8, 25 °C).
`B2 (GTPBP3 E142K/R136E)` gave a kcat of 0.00867 ± 0.0005 s⁻¹ (Nc1nc2c(ncn2[C@@H]2O[C@H](COP(=O)(O)OP(=O)(O)OP(=O)(O)O)[C@@H](O)[C@H]2O)c(=O)[nH]1; pH 8, 37 °C, KCl 300 mM).
For `LovD A86V/C40A/C60N (Aspergillus terreus)`, the kcat was 0.0132 ± 0.0005 s⁻¹ (CCC(C)(C)C(=O)SCCC(=O)OC; 25 °C, 10% DMSO, together with: 2 mM MJA).
`B3 (PRP43 R159A)` has a kcat of 6.1 ± 0.3 s⁻¹ (Nc1ccn([C@@H]2O[C@H](COP(=O)(O)OP(=O)(O)OP(=O)(O)O)[C@@H](O)[C@H]2O)c(=O)n1; pH 8, KCl 100 mM, without Pfa1, together with: polyA 0.2 mM, magnesium acetate 2.5 mM).
`STM4540 (Salmonella enterica, UniProt Q8ZJX7)` has a kcat of 0.967 ± 0.0383 s⁻¹ (N[C@@H](CCCCNCC(=O)[C@@H](O)[C@H](O)[C@H](O)COP(=O)(O)O)C(=O)O; pH 7.5, 37 °C).
The kcat of `B4 (NotC)` is reported as 1.12 ± 0.0233 s⁻¹ (CC(C)=CCOP(=O)(O)OP(=O)(O)O; pH 7.5, together with: 6-hydroxy-deoxybrevianamide E 22, MgCl2 5 mM).
`protein (Shewanella denitrificans, UniProt Q12KT8)` gave a kcat of 4.4 ± 0.3 s⁻¹ (Cc1cn([C@H]2C[C@H](O)[C@@H](COP(=O)(O)OP(=O)(O)O[C@H]3O[C@H](C)[C@H](O)[C@H](N)[C@H]3O)O2)c(=O)[nH]c1=O; pH 8.5, together with: acetyl-CoA 2 mM).
The kcat of `B5 (thyA H147V)` is reported as 0.61 ± 0.04 s⁻¹ (Nc1nc2c(c(=O)[nH]1)N1CN(c3ccc(C(=O)N[C@@H](CCC(=O)O)C(=O)O)cc3)C[C@H]1CN2; 25 °C, substrate inhibition by CH2H4folate, cofactor varied, together with: dUMP 200 µM).
`B6 (cyc1 L72V)` has a kcat of 0.044 ± 0.003 s⁻¹ (CC(C)=CCC/C(C)=C/CC/C(C)=C/CO[P@@](=O)(O)OP(=O)(O)O; pH 6.5, 30 °C, together with: MgCl2 10 mM).
With `BaiA1 (Clostridium scindens, UniProt P07914)` the kcat was 0.7 s⁻¹ (C[C@H](CCC(=O)SCCNC(=O)CCNC(=O)[C@H](O)C(C)(C)COP(=O)(O)OP(=O)(O)OC[C@H]1O[C@@H](n2cnc3c(N)ncnc32)[C@H](O)[C@@H]1OP(=O)(O)O)[C@H]1CC[C@H]2[C@@H]3CC[C@@H]4CC(=O)CC[C@]4(C)[C@H]3CC[C@]12C; pH 8.7, 37 °C, together with: NADH).
`B7 (protein)` gave a kcat of 0.91 ± 0.00167 s⁻¹ (N[C@@H](Cc1ccc(O)c(O)c1)C(=O)O; pH 8.5, 25 °C, ascorbic acid 10 mM, together with: O2).
With `alanine racemase (Geobacillus stearothermophilus, UniProt P10724)` the kcat was 3500 s⁻¹ (C[C@@H](N)C(=O)O; pH 9, room temperature, together with: NAD+ 10 mM).
`AphC (Rhodococcus jostii, UniProt Q0S9X1)` has a kcat of 0.344 s⁻¹ (Oc1ccc(-c2ccccc2)cc1O; pH 8, 25 °C, apparent, together with: O2).
With `B8 (SACOL1063)` the kcat was 10.3 s⁻¹ (C[C@@H](O)[C@H](N)C(=O)O; pH 8, 37 °C, Hill coefficient, together with: AcCoA 1 mM, L-Thr 0-10 mM).
For `Sua5 (Pyrococcus abyssi, UniProt Q9UYB2)`, the kcat was 0.054 ± 0.002 s⁻¹ (C[C@@H](O)[C@H](N)C(=O)O; pH 8, 50 °C, KCl 35 mM, together with: ATP, Mg2+, Mn2+, L-threonine 3–150 µM).
`RAD30 (Saccharomyces cerevisiae, UniProt Q04049)` gave a kcat of 0.00145 ± 0.000167 s⁻¹ (Cc1cn([C@H]2C[C@H](O)[C@@H](COP(=O)(O)OP(=O)(O)OP(=O)(O)O)O2)c(=O)[nH]c1=O; pH 7.5, room temperature, apparent Km, apparent, together with: dG 10 nM primer-template).
`CYP2C9 (Homo sapiens, UniProt P11712)` gave a kcat of 0.000603 s⁻¹ (Cc1ccc(Nc2c(F)cccc2Cl)c(CC(=O)O)c1; pH 7.4, Hill model, CYP2C9, metabolite, not purified).

Repeated from above:
`RAD30 (Saccharomyces cerevisiae, UniProt Q04049)` gave a kcat of 0.00145 ± 0.000167 s⁻¹ (Cc1cn([C@H]2C[C@H](O)[C@@H](COP(=O)(O)OP(=O)(O)OP(=O)(O)O)O2)c(=O)[nH]c1=O; pH 7.5, room temperature, apparent Km, apparent, together with: dG 10 nM primer-template).
